Measured values of several laboratories.
Each line is one published result; not all experiments were run side by side. Values joined by “and” are separate records of one study, mostly repeats; a detail may differ. Numbers after ± are the reported error.

O=S(=O)(N[C@H]1CCC[C@@H](N2c3ccccc3CCc3ccccc32)[C@@H]1O)c1ccc(OC(F)(F)F)cc1 — Cmax (mouse, plasma; oral, 100 mg/kg, solution): 2250 ng/mL
O=S(=O)(Nc1ccc(OC(F)(F)F)cc1)N1CCCC(C2c3ccc(F)cc3CCc3cc(F)ccc32)C1 (centres unmarked) — Cmax (mouse; oral, 30 mg/kg): ~18 µM
O=C(c1ccccc1)N1C(c2ccc(OCC3CCN(CCCF)C3)cc2)c2ccc(O)cc2CC12CC2 (centres unmarked) — Cmax (C57BL/6J mouse, plasma; intraperitoneal, 25 mg/kg): 4540 ng/mL and 6200 ng/mL
Cc1[nH]nc2c1N=C(c1ccccc1Cl)c1cnc(N3CCOCC3)cc1N2 — Cmax (nude mouse, HCC1806 xenograft, tumor; oral, 15 mg/kg once daily): 443 ng/mL
Cc1ncsc1-c1ccc(CNC(=O)[C@@H]2C[C@@H](O)CN2C(=O)[C@@H](NC(=O)COCC(C)(COCCOCCOCCNC(=O)C[C@@H]2N=C(c3ccc(Cl)cc3)c3c(sc(C)c3C)-n3c(C)nnc32)COCCOCCOCCNC(=O)C[C@@H]2N=C(c3ccc(Cl)cc3)c3c(sc(C)c3C)-n3c(C)nnc32)C(C)(C)C)cc1 — Cmax (C57BL/6 mouse, male, plasma; subcutaneous, 5 mg/kg): 3830 ng/mL
O=S(=O)(NCc1ccncc1)c1ccc(C2CCCCC2)cc1 — Cmax (mouse (C57BL/6J, male), brain cerebral cortex; intraperitoneal, 0.3 mg/kg): 0.103 µM
O=C(Cc1ccc(OCc2ccccc2)cc1)NC1(C(=O)O)CCN(C(=O)c2ccc(-c3cccc(Cl)c3)cc2)CC1 — Cmax (mouse BALB/c female; intraperitoneal, 20 mg/kg): 3470 ± 400 ng/mL
CN[C@H](CC(C)C)C(=O)N[C@H]1C(=O)N[C@@H](CC(N)=O)C(=O)N[C@H]2C(=N)N[C@H]3C(=O)N[C@H](C(=O)N[C@H](C(=O)NCCC[N+](C)(C)C)c4cc(O)cc(O)c4-c4cc3ccc4O)[C@H](O)c3ccc(c(Cl)c3)Oc3cc2cc(c3O[C@@H]2O[C@H](CO)[C@@H](O)[C@H](O)[C@H]2O[C@H]2C[C@](C)(NCc3ccc(-c4ccc(Cl)cc4)cc3)[C@H](O)[C@H](C)O2)Oc2ccc(cc2Cl)[C@H]1O — Cmax (mouse; intravenous, 50 mg/kg): 387000 ng/mL
Cc1nn(-c2nc3c(F)cc(F)cc3s2)c(O)c1C(c1ccc(C(F)(F)F)cc1)c1c(C)nn(-c2nc3c(F)cc(F)cc3s2)c1O — Cmax (ICR mouse, plasma; intravenous, 5 mg/kg): 9720 ng/mL and 21600 ng/mL and 12700 ng/mL
Cc1ncc2c(n1)CN(C(=O)Nc1nc(-c3cccs3)ccc1N)C2 — Cmax (C57BL/6 mouse, brain; oral gavage, 10 mg/kg, 20% HPβCD in water): 289 ng/mL
C/C(N)=N/C(=N\S(=O)(=O)c1ccc(C(F)(F)F)cc1)N1C[C@H](c2ccccc2)C(c2ccc(Cl)cc2)=N1 — Cmax (C57BL/6 mouse, adipose tissue; intravenous, 10 mg/kg): 9830 ng/mL
